Measured values of several laboratories.
Target: Amine oxidase [flavin-containing] A (MAOA, Homo sapiens, UniProt P21397)
Chain of UniProt P21397 (whole entry, looked up): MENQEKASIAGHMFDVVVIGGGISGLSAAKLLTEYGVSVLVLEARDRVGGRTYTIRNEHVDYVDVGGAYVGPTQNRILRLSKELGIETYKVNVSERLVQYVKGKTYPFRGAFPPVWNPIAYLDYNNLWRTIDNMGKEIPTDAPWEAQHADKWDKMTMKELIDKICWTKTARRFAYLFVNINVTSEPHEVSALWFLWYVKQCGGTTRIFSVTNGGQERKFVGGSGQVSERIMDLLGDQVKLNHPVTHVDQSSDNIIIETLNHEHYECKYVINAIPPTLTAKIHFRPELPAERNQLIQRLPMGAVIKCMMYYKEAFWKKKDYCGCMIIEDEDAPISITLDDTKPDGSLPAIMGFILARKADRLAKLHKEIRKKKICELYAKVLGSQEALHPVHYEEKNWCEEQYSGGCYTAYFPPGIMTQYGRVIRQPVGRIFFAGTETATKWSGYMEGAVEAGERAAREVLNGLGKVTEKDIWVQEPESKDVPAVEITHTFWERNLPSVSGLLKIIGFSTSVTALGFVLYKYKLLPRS
Read-out: enzyme activity
Action: inhibitor
Concentration: 10 µM

O=C1c2cc(Cl)ccc2NC12CCCC2 — remaining activity: 79.1%
NC(=S)N/N=C/c1ccccc1OCc1ccccc1 — remaining activity (absorbance): 66%
O=C1c2cc(F)ccc2NC12CCCC2 — remaining activity: 68.7%
Fc1cccc(COc2ccc(/C=N/NC(=S)Nc3ccccc3)cc2)c1 — remaining activity (absorbance): 97.4%
O=C(/C=C/c1ccc(C(F)(F)F)cc1)c1ccc(N2CCNCC2)cc1 — remaining activity: 80.9%
NC(=O)N/N=C/c1cccc(OCc2ccccc2)c1 — remaining activity (absorbance): 66.6%
O=C(/C=C/c1ccccc1)c1ccc(N2CCNCC2)cc1 — remaining activity: 96.6%
O=C(/C=C/c1cccc(F)c1)c1cc2ccccc2oc1=O — remaining activity: 98.8%
O=C(/C=C/c1ccc(Cl)cc1)c1ccc(N2CCNCC2)cc1 — remaining activity: 99.2%
S=C(N/N=C/c1cccc(OCc2ccccc2)c1)Nc1ccccc1 — remaining activity (absorbance): 2.13%
O=C1c2cc(F)ccc2N(Cc2ccccc2)C12CCCC2 — remaining activity: 81.3%
O=C(/C=C/c1ccc([N+](=O)[O-])cc1)c1ccc(N2CCNCC2)cc1 — remaining activity: 98.1%
O=C(/C=C/c1ccc(Br)cc1)c1cc2ccccc2oc1=O — remaining activity: 87.3%
Cc1ccc(/C=C/C(=O)c2ccc(N3CCNCC3)cc2)cc1 — remaining activity: 82.9%
O=C1c2ccccc2N(Cc2ccccc2)C12CCCC2 — remaining activity: 80.7%
NC(=S)N/N=C/c1ccc(OCc2ccccc2)cc1 — remaining activity (absorbance): 124%
O=C1c2ccccc2N(Cc2ccc(F)cc2)C12CCCC2 — remaining activity: 73.8%
O=C(/C=C/c1ccccc1F)c1cc2ccccc2oc1=O — remaining activity: 83.1%
CN(C)c1ccc(/C=C/C(=O)c2ccc(N3CCNCC3)cc2)cc1 — remaining activity: 80.1%
O=C(/C=C/c1cccc(Cl)c1)c1cc2ccccc2oc1=O — remaining activity: 95.5%
NC(=O)N/N=C/c1ccccc1OCc1ccccc1 — remaining activity (absorbance): 169%
